Results of several laboratories.
Protocols differ between the studies behind these lines. Values joined by “and” are separate records of one study, mostly repeats; a detail may differ.
Target: Aurora kinase A (AURKA, Homo sapiens, UniProt O14965)
One construct used (O14965 1-403): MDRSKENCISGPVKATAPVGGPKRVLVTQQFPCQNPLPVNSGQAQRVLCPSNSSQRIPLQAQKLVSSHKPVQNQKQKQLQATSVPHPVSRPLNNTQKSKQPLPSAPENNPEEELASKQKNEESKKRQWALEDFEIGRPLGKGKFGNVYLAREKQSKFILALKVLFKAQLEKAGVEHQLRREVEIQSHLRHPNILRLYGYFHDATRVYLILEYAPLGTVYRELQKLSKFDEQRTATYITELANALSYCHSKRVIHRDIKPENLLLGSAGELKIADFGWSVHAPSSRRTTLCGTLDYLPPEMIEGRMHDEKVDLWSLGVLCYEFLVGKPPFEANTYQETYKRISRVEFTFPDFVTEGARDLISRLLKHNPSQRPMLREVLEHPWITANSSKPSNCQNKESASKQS

SMILES | assay | conditions | scale | quantity | value
CN1C[C@@H](c2c[nH]c3cc(Br)ccc23)NC[C@@H]1c1c[nH]c2cc(Br)ccc12 | enzyme activity, inhibitor | 10 µM | – | remaining activity | 93%
CC(=O)N1c2ccc(-c3ccc(CNC(=O)c4cn5cc(-c6cnc(N)nc6)nc(N6CCOCC6)c5n4)cc3)cc2CC[C@@H]1C | KINOMEscan | 10 µM | – | remaining binding | 82%
Cc1cccc(O[C@H]2CCC[C@@H](C(C)CNCc3ccncc3)C2)c1 (relative stereo) | enzyme activity, inhibitor | 1 µM | – | inhibition | -17%
Nc1ncc2c(n1)-c1c([nH]c3ccc(C4=CCOCC4)cc13)CCC2 | binding, competition with immobilised ligand | 1 µM | – | remaining binding | 95%
NC(=O)C[C@H]1CCc2sc3ncnc(O[C@H]4CC[C@H](N5CCOCC5)CC4)c3c21 | enzyme activity, inhibitor | 10 µM | – | inhibition | 15%
CCN1CCN(Cc2ccc(C(=O)Nc3ccc(C)c(NCc4cnc5[nH]ccc5c4OC)c3)cc2C(F)(F)F)CC1 | binding, competition with immobilised ligand | 1 µM | – | remaining binding | 86%
C=C1CCCCCCCCCC(CO)C1=O (stereo not drawn) | cell-free assay | 10 µM | – | remaining signal | 55%
CN1CC[C@@H](COc2cnc(C#N)cc2-c2ccn3nc(NC(=O)C4CC4)cc3c2)C1 | enzyme activity, inhibitor | 1 µM | – | inhibition | 19%
COc1cc(Nc2nc(C)cc(-c3cnn4nc(OC)ccc34)n2)cc(C(F)(F)F)c1 | inhibitor | 1 µM | relative to: control | remaining activity | 93%
CCn1cc(C(=O)O)c(=O)c2c(N)c(F)c(NC3CCCCC3)cc21 | kinase activity | 0.1 µM, added: ATP at Km | – | inhibition | 3.7%
CNS(=O)(=O)Nc1nccc(Cc2c(C)c3ccc(Oc4ncccc4F)cc3oc2=O)c1F | cell-free assay, competition with immobilised ligand | 10 µM | – | remaining binding | 100%
Cc1ccc(-c2c(/C=C(\C#N)C(=O)NC(C)C)n(CCCO)c3ncnc(N)c23)cc1 | cell-free assay, competition with immobilised ligand | 1 µM | – | remaining binding | 82%
COc1c(OCCCN2CCOCC2)ccc2c1N=C(NC(=O)c1cnc(N)nc1)N1CCN=C21 | kinase activity, inhibitor | 1 µM | relative to: untreated control | remaining activity | 111%
O=C(Cc1ccc(OCc2ccccc2)cc1)NC1(C(=O)O)CCN(C(=O)c2ccc(-c3cccc(Cl)c3)cc2)CC1 | enzyme activity, inhibitor | 10 µM | – | activity vs control | 71%
CNC1C[S+]2CC[S+]3CC[S+](C1)[Ru-4]321([N]=C=S)[n]2c3ccc(OC)cc3c3c4c(c5cc(F)c[n+]1c5c32)C(=O)NC4=O (stereo not drawn) | KinomeScan | 0.1 µM | relative to: untreated | remaining binding | 84%
CNC(=O)C1CCN(c2cc(C)c(F)cc2NC(=O)c2ccc(-c3cc(O)ccc3C)c(C)c2)CC1 | binding, competition with immobilised ligand | 1 µM | – | remaining binding | 100%
Cc1[nH]nc2c1N=C(c1ccccc1Cl)c1cnc(N3CCOCC3)cc1N2 | enzyme activity, inhibitor | 0.5 µM | – | inhibition | > 99%
Nc1ncc(-c2cc(-c3cnn(CC(F)(F)F)c3)ncc2F)nc1C(=O)NC1CNCC(F)C1 (stereo not drawn) | enzyme activity | 1 µM | relative to: DMSO control | remaining activity | 78.3%
COc1ccc(NC(=O)Nc2ccc3c(c2)C(=O)N(C(C)CO)CC(C)C(CN(C)Cc2ccc4c(c2)OCO4)O3)cc1 (stereo not drawn) | kinase activity | 0.03 µM | relative to: control | remaining activity | 94%
CN1CCN(Cc2ccc(NC(=O)c3cccc(C#Cc4cnc(N)c5ncccc45)c3)cc2C(F)(F)F)CC1 | cell-free assay, competition with immobilised ligand | 50 nM | – | remaining binding | 82%
C=CC(=O)Nc1cccc(-c2cnc3[nH]cc(C(=O)NC(C)(C)C)c3n2)c1 | kinase activity | 0.1 µM | – | inhibition | 35% and 33%

A few entries again:
SMILES | assay | conditions | scale | quantity | value
COc1ccc(NC(=O)Nc2ccc3c(c2)C(=O)N(C(C)CO)CC(C)C(CN(C)Cc2ccc4c(c2)OCO4)O3)cc1 (stereo not drawn) | kinase activity | 0.03 µM | relative to: control | remaining activity | 94%
CN1CCN(Cc2ccc(NC(=O)c3cccc(C#Cc4cnc(N)c5ncccc45)c3)cc2C(F)(F)F)CC1 | cell-free assay, competition with immobilised ligand | 50 nM | – | remaining binding | 82%
C=CC(=O)Nc1cccc(-c2cnc3[nH]cc(C(=O)NC(C)(C)C)c3n2)c1 | kinase activity | 0.1 µM | – | inhibition | 35% and 33%
